Measurements gathered from unrelated publications.
A part holds a random share of what one study measured.

Series 1 — technique: RNA Bind-n-Seq; form: RNA; sample: in vitro; concentration: 365 nM; baseline: no-protein control; reading: higher = stronger binding
Target: RNA binding protein fox-1 homolog 2, RRM domain, GST-SBP tag (RBFOX2, Homo sapiens, UniProt O43251-10, residues 100-194)
Setting: natural RNA segment, single round, ends assumed
Constant ends, left off below: GGGAGUUCUACAGUCCGACGAUC … UGGAAUUCUCGGGUGCCAA
Target sequence (chain): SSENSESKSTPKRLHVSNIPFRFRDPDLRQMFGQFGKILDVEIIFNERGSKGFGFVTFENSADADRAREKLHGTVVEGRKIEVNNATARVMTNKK
Sequence | RBNS enrichment (R)
GUUGUUCUGUGUAGCUUUGGCUCUCCUAGAACUUGCUCUGUAGACCAGGCUGGCCUUGAACACAGAAAGAGAUUCAUCUGCCUCUGCCUCCUGAGUGCUGGGAUUAAAGG | 0.288
UAAAGGCUUUGACCCCACAGCCUCCCCCUUCUGCCAUAGUGUCACUGGGGGCCAGUGCUCCCUCCACUCCACCACCCUCCCAGGGUGACAUUUAAGGGCAGCAACCAGAG | 0.51
AGCCACGCCUCCCUGACCUAUCCCGGGACAGGGCCUCUUCCUCGGCCUUCCCAUAUUGGUGGCAGUGGUGCCACACUGAACAGAGUGGAAGACAUAUGCCAUGCAGCUAC | 0.405
CACUACAGGAUAUGAUCUCCAUGUAGUCCAUAUAAACCUGCAGAGUGAUUUUCCAGAGUGCUCGAUACUGUUAAUUACAUCUCCAUUAGGGCUGAAAAGAAUGACCUACG | 0.836
UACAAUUCAAGAUGAGAUUUGGAUGGGACACAGCCAAACCAUAUCAAUAGGUAUUAUUUUAUCCCCCAUUUUAUAAAUGAGGAAACGGAGGCUUAGUUGAGUGAGCUGAC | 0.333
GAGUUCCGAAGCAAGUCAAGUUUGUAAAUGCAUACCUAAAAAUAUUUAAUAAACGAUGCAGAAUCCUAUGCAGUGACUGGCUGGUGGCUUUCAUUUGUCAUUUCCUUGUG | 0.505
CCUUUUCCACACUCCUCCUCCGACAGCAGCUCCCUGGGCAGUGGCCUGGUCUCACCGUGUGCAGCCUUGUGGUUUAUGCUUAAAUGUACAUUUUCCUGCUGGUAAAAGGA | 0.603
CGGUCAAGGCUUUGGAGCCACUCUUUUGUAACUCCAGAUUAUUUAAAGAGAAAAGUACAAGACAGAAAUCUUCUAGCACUUUGUAAACACAGUGAAUAACCUCUUGGAGU | 0.358
CCCAGGACAGUGUUACUUCUUCUGCAUGAUGUGUGGUAGACUCCCUUUGCUGGCUUGUGCAGUGAUACUGAGAAAAUACAUGAACAGAAACUGCCCAGGUGGAACAGCAC | 8.57
GUGGCUCAGUUAAGGAAUGAGAAGAUAGAGGGUCCUCCACUUUCAGCUCAUGCUUUUUUAUGUAGGACUAGCUUACCUGAUUUUAAUGAAAAUCACAUUUUGAUACAAAC | 0.382
ACAAUUUGUUCCAACUUUAAUCCAUAAUUUAAAAACUGACAAAUCACUUUCAGAAAUUCAGGUGCACAAGGGAAACUUUCAAGUACGAUCCAAUUAUCUUUCUGAUCCUU | 0.626
UGGUACAAUCAGAGCUCCGUGGGGACUGUAGGGAGCAGGGUGUUACUACUGGCCGUUCUUCCCACAGUGAUUAACGGUAGAGAUCAAGCUCAGUCCCCUUUAUCCCCCCC | 0.223

Series 2 — technique: protein binding microarray; form: double-stranded DNA, one strand shown; sample: in vitro; concentration: not given; baseline: not given; reading: higher = stronger binding
Target: Histone acetyltransferase KAT6A, winged helix 1, GST fusion (KAT6A, Homo sapiens, UniProt Q92794, residues 1-85)
Setting: 8-mer, flanks averaged, mean of 2 arrays, mostly near background
Target sequence (chain): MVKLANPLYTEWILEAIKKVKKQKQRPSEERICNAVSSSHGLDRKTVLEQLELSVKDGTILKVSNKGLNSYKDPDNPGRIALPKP
Sequence | E-score
CCGTCGTC | 0.295
GTGTTCCA | -0.107
AAGTAGCA | -0.248
AATAGACA | -0.143
ATTGCACA | -0.258
AATGACCG | 0.103
TAGAGTCA | -0.059
GGCGATCA | 0.136
AGAGGCCA | -0.105
ACGAACGA | -0.0578
GAAGTAAA | -0.236
CAAATCAC | -0.0268
AACTAGCA | -0.163
CAAATAGG | -0.128
ATCATACG | -0.00379
GAATCGAA | -0.111
GCGTCGAA | 0.213
GTCCCGTA | 0.265
GCAGTGCC | 0.105
ACGTAATA | 0.0387
CATCAAGG | -0.185
AGGCAGTG | -0.0739
ACACCTAC | 0.0353
ATACGAAG | -0.0104
ATCGAAGC | 0.0367

Series 3 — technique: protein-binding microarray; form: double-stranded DNA, one strand shown; sample: in vitro; concentration: 2200 nM top; setting: 60-bp whole probe; added: salmon DNA 0.4 mg/ml; baseline: random background probes; reading: higher = stronger binding; constant ends, left off below: GCCTAGCAC … GTCTTGATTCGCTTGACGCTGCTG
Target: Interferon regulatory factor 7, full length, phosphomimetic (IRF7, Homo sapiens, UniProt Q92985, residues 1-503, S471D/S472D/S475D/S476D/S477D/S483D/S484D/S487D)
Target sequence (chain): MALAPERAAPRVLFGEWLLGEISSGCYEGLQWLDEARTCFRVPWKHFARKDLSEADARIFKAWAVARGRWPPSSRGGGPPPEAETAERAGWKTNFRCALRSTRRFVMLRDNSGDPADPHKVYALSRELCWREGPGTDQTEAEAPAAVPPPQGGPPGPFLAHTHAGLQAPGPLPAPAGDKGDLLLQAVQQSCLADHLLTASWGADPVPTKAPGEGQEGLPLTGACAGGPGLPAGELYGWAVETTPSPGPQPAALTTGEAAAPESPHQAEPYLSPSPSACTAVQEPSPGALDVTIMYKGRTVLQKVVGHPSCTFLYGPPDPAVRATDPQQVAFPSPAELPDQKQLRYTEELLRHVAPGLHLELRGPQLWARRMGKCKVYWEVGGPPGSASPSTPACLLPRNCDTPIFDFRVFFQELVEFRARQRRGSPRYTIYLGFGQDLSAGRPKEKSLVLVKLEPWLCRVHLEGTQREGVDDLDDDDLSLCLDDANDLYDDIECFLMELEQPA
Sequence | fitted relative affinity [z-score]
TCATGTATGGATGTGTCACTGTGCTAG | 0.882
CATTTTCTCTTATTCTAACAGTGCTAG | 3.42
TCAGCTCTTTCGTTACTTACTGTGCTA | 2.78
TCAATTTTCGGGTAGATGACTGTGCTA | 5.07
TTAAGACTGGACTATCGGTTAGTGCTA | -0.347
TTAGAACTGAGTATCCATTAGTGCTAG | -0.362
GACGATCTCAGTATCGAGAAGTGCTAG | -0.0247
TTAGGTTTCGCGTTTCGGTTAGTGCTA | 6.41
GACGGTCTCCCTCTCCTGACGTGCTAG | 0.451
TTAGAGCTGAGACTGGATTAGTGCTAG | -0.975
TCAGCTTTGTGCCTAGCACTGTGCTAG | 0.18
GACGGTTCCGGTTTCCGGACGTGCTAG | 4.43
GACGATATCAGGCTGGAGACGTGCTAG | -0.145
GGCGATCTCAGACTGGAGACGTGCTAG | -0.67
TTAGATATCAGTTTCGAATAGTGCTAG | 2.13
TCAACTAGCGGGTCTTGCACTGTGCTA | -0.224
GACGGTCTCCTTATCCTGGCGTGCTAG | 0.898
GACGTTTTCGGTCTCGGGACGTGCTAG | 6.01
TTAGTTATCGACACTGGGTTAGTGCTA | 0.26
TTTGGTCTCCTTCTCCTTTAGTGCTAG | 1.99
TTAGATATCGGGGCTGGATTAGTGCTA | -0.164
GTCGATTTCAGTATCGAGACGTGCTAG | 1.52
GACGATTTCGGTTATCGAGACGTGCTA | 4.14

Series 4 — technique: aptamer microarray, sandwich; form: DNA with 2'F-ANA; sample: in vitro; concentration: 200 nM; added: Cy3 exosite-II aptamer, 400 nM; reading: higher = stronger binding; sequence: GGTTGGTGTGGTTGG
Target: Prothrombin, mature alpha-thrombin (F2, Homo sapiens, UniProt P00734)
Setting: whole 15-mer aptamer, many near background
Modification | mean fluorescence intensity [a.u.]
2'F-ANA at 1 2 7 8 9 10 12 13 14 | 50.3
2'F-ANA at 1 3 7 9 10 11 12 14 | 76.7
2'F-ANA at 1 2 4 7 8 9 10 12 | 68.4
2'F-ANA at 1 2 3 7 8 10 12 13 14 15 | 110
2'F-ANA at 4 5 6 7 10 13 | 79.6
2'F-ANA at 3 5 9 10 | 56.9
2'F-ANA at 2 3 7 8 11 | 1130
2'F-ANA at 2 3 6 7 8 9 10 11 12 13 14 | 251
2'F-ANA at 2 3 6 10 11 12 | 432
2'F-ANA at 2 3 5 8 10 13 14 15 | 49.6
2'F-ANA at 3 4 10 12 13 14 | 222
2'F-ANA at 2 4 5 6 7 9 14 15 | 138
2'F-ANA at 4 8 10 11 12 14 | 57.7
2'F-ANA at 2 3 7 9 14 | 428
2'F-ANA at 3 5 6 7 13 14 15 | 57.7
2'F-ANA at 7 9 11 13 | 486
2'F-ANA at 1 2 8 9 10 11 15 | 55.1
2'F-ANA at 4 9 10 12 15 | 106
2'F-ANA at 1 3 6 10 13 | 72.5
2'F-ANA at 1 3 4 6 7 10 12 15 | 79
2'F-ANA at 4 6 8 9 | 276
2'F-ANA at 2 3 8 9 10 15 | 429

Repeated from above (series 2):
Sequence | E-score
AATAGACA | -0.143
ATACGAAG | -0.0104
GGCGATCA | 0.136
GAAGTAAA | -0.236
GCAGTGCC | 0.105
AGAGGCCA | -0.105
AATGACCG | 0.103
GAATCGAA | -0.111
CAAATAGG | -0.128
AAGTAGCA | -0.248
GTCCCGTA | 0.265
CATCAAGG | -0.185
AACTAGCA | -0.163
